Published values of several laboratories.
Parts stem from different laboratories: compare values within a part only. Positions count from the first letter of the parent shown.

Block 1 — target: CEBPD, bZIP domain (human); method: DHFR protein complementation; sample: yeast; baseline: wild-type JUN-FOS pair; reading: higher = stronger binding
Setting: single substitutions, most at no-binding floor
Parent: JUN, bZIP domain (human); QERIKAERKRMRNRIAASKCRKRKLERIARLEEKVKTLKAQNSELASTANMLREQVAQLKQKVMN; partner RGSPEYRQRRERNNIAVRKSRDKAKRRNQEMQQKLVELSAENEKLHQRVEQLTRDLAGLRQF
Variant	binding fitness
R53G	-1.35 natural log
S47W	-1.48 natural log
A57T	-1.42 natural log
A57V	-1.41 natural log
A57Q	-1.31 natural log
L59W	-1.41 natural log
R53T	-1.33 natural log
L31A	-1.42 natural log
L38P	-1.4 natural log
A57H	-1.22 natural log
K36I	-1.33 natural log
E44N	-1.46 natural log
A40T	-1.39 natural log
A29T	-1.33 natural log

Block 2 — method: RNA Bind-n-Seq; molecule type: RNA; sample: in vitro; tested at: 365 nM; baseline: no-protein control; reading: higher = stronger binding
Target: RNA binding protein fox-1 homolog 2, RRM domain, GST-SBP tag (RBFOX2, Homo sapiens, UniProt O43251-10, residues 100-194)
Setting: natural RNA segment, single round, ends assumed
Constant ends, left off below: GGGAGUUCUACAGUCCGACGAUC … UGGAAUUCUCGGGUGCCAA
Target sequence (chain): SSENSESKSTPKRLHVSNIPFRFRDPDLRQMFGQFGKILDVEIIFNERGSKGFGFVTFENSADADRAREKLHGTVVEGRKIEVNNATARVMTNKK
Oligonucleotide	RBNS enrichment (R)
AGGAAGUUGAGUCCUAGUGCAAAAUGCAGGCGGACGUUGCCAGAGAGUGCGCAGCAAAUGACCUUCAUUGCCAGUUCCACCCUACUCCUCUCAUUUUUUAUACUAAGCAA	0.448
UGGGUGUGGAUGAGUAUUUUUCUGACCCCAGCCCUGCAGUGGAACCUAAUAAAAGCACCUGAAGCGAUGUCCUGCUCCCAGUGCAUUGUUCCUGUGCCCAGAACCACAGU	0.202
AUGUAACACUGGCCAGCGGGCCCAGCAAUCUCCAUGUGUACUUAUUACAGUCUUAUUUAACCAGGGGUCCUAACCACUAACAUUGUGACUUUGCUUUGAGACCUUUCCUC	0.537
AGGUGGAUGGAGAGACAUUUGAUCCCUUGUUUGCUUAAUAAAUUAUAAAAUGAUGGCUUGGAAAAGCAGGCUAGUCUAACCAUGGUGCUAUUAUUAGGCUUGCUUGUUAC	2.16
ACAUUUUAACAACUGGCACACACAUGAGCCUACACACUUGAGCCUACACACAUGAGCCAGUUUUUCCUUAUUGUAGUGUCCUGUGAGACAGACCAGCUCCAAGCACUGCU	0.433
CACUUUGCGCUCAAUGGACUUUGUAAAUUCUCAUCAGCUGUUGUAGAAGUUCCUCUGCCUGGAGCUGUCAUCUCAGCCGCUCCCUUAGAAAGUGCCCUUCAACGGACCCU	0.218
AAAGUAUGCUCUAAGGAACAAUGUUUUAAUGAAAUCUUGGAUACAAAGUGGAAUAAAAGGUUUCUGAGCAUAAAGUAGCUCUUCAGUAGUUACAACCUAUUCUUUUGCAU	0.438
GCCUCACCGUCUGCCUUGCUCCUCUCUUCCCAAAUCAUCACCGCCAUGGGCCCAGCCCCAAAGGGCAGUGAAUGGCCUUCUCUGAAACCCUGCGUCAAGCAGUGGGAGAG	0.376
AAGUGCCAUAUUCUGUGAUCACGGAUGUUGGCUCCCCCUCGCCCUAUGCAAGCAAACACACUCUCACCUCCUCUCCCAGCCUCCCGGAGCUCUGAGCACGCCCCACGCAU	1.36
CAAAAAAUAGCUUUCAAAAGAAAUUUAAGUUCUAUGAGAAAUUCCUUAGUCAUGGUGUUGCGUAAAUCAUAUUUUAGCUGCACGGCAUUACCCCACACAGGGUGGCAGAA	0.673
CUUUACAAGCUGACUUGGAAUUGUGUGCUGCUUGCUGUUAGCUAGGGGAAAGGCCCUGCCAAUGUUUAACUUUUAAAAGCAUCUUAUCUAAAAGAAAGGCUAUCCAGUAG	1.99
CUGUAGGUGAUUCUUGACUGUGGGGAUUGGAAUUUGAGGCAGAAGUUACCAUCCCUACUACAUUUUUUAAAGUUGGUAGCACAAAUGCUUUUUAUUCUAUGAAAACAAUC	0.958

Block 3 — method: RNA Bind-n-Seq; molecule type: RNA; sample: in vitro; tested at: not given; setting: RNA with constant flanks, ends assumed; baseline: input RNA pool; reading: higher = stronger binding
Target: RING finger protein unkempt homolog, zinc fingers 1-6, GST-SBP tag (UNK, Homo sapiens, UniProt Q9C0B0, residues 30-357)
Constant ends, left off below: GGGAGUUCUACAGUCCGACGAUC … CAACAGAGGAUUGAGCAUCA
Residues (chain): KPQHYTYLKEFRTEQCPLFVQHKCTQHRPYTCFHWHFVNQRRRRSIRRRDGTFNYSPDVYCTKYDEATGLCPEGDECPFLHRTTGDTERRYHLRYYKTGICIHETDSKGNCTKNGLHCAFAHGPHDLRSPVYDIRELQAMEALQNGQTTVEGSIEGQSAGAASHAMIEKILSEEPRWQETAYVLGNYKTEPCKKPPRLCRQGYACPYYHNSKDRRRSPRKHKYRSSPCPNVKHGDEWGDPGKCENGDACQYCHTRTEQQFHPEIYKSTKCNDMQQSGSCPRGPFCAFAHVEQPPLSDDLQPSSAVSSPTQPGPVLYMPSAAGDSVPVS
Oligonucleotide	bound/input enrichment [ratio]
CUCUUAAAAGACUAUGAAGAUAAAAUUCGGGAGGAGUAUGAGCAAAUCCUCAAUACCAAACCCGCAGAACAAUAUGAAUCUUUUGUGAAAUUCACACAUGAUCAGAUUAUGCGACGGUAU	0.194
AUCCAUGACCUCGCAUGCCACGCUGUCACCAUCUGCAGUCCAGAUUAUUUGCUGGAUGUUUCCGAACUAAGUAAAUACACUUUAACCGCUGUGGAGCUUUGCAGACAAUGCCAGAUGGAU	0.153
CCAUGGACAACAAGCCUUGGGUAACCGGACCAGGCCAAGGGUCUACAAUUCUCCAACGAACCGCUCCUCUACCCAAGAUUCUAUGGAGGUUGGCCACAGUCACCACUCCAUGACAUCCCU	0.0417
AGGAUAAACUAAGCCAUUUUAUGUAUUUUAUUUUAAACCUUAUUUUGGCAGAGUAAUUCCUCCGAAUUGGAAAAGCUGUUACUUUGAAAUUACCAAUUUAUUACAAAACAUAGAAAUGUA	2.31
GUCUGCAUUUAUCUUUCUUCCAAGUUUUUCUAAUUCUAAUGCUAUUUGUUAUAAUUCCGGUUUGGGAUAAAAAUAUGCUUUUGGAAGAUUUAAAAAGAAAAUUAAAACAGCUCUUCCUGA	1.11
GUCAGUACACCAAGUUCUGGUCUGCUCAUGCUUCAUUGUCCAGAAAGCAGCAGGAAAUUGCCGUUCCGUUGUCAUCAAGCAGGAAGCAAAUGCAACACCGACCAAGGCAGUUUAGGUCAA	0.302
UACCACCAUGUACCCAGGCAUUGCUGACAGGAUGCAGAAGGAGAUUACUGCUCUGGCUCCCCGCACCAUGAAGAUCAAGAUCAUUGCUCCUCCUGAGCGCAAGUACUCUGUGUGGAUCGA	0.101
AGCAAUGAAAAGACAGCCCUCCUCCCAGCCCCCACCUCACUAGGAGACACGAACGUUACCGCCGAAGAGCAAUUUAACUCAAUAAAUUUAUCUUUUCAGGAUGAUCCAGACUCCAGUCCC	0.201
AAGCCAAUUCAGAACUUCAUUGAAACUGACACUACAGAAGCUGUAGGAAAUGUAUGUCAGCCCGCACAAGCAGAGCACAUAUUAAAAUCCUGUCCAUUUCGGAGCCCUAUUCCAAUCUGG	0.146
AAACUGGCUGUUCAGAUUGGCAAAGCAGGUCUGUUGAUGUCUGCCAUCACAGUUAUCAUUCCCGUAUUAUAUUUUGUCAUUGACACCUUCUGGGUUCAGAAAAGACCAUGGCUUGCUGAG	0.243
CACACCCUCUUCUGUGGCACCCUCAUUCUGCAGGCCCGAGCCUACGUGGGACCCCGUGUGCCCGCAGUGGUGACUCGGACAGGGUUCUGCACAGCCAAAGGGGGCCUGGUGAGCUCCAUC	0.156

Block 4 — target: CCND2, cyclin fold, Cln2 fusion (human); method: yeast growth competition, sequencing; sample: yeast; setting: weak parent motif; baseline: not given; reading: higher = stronger binding
Parent: RBL1 docking peptide (human); GSAKRRLFGEDPP; partner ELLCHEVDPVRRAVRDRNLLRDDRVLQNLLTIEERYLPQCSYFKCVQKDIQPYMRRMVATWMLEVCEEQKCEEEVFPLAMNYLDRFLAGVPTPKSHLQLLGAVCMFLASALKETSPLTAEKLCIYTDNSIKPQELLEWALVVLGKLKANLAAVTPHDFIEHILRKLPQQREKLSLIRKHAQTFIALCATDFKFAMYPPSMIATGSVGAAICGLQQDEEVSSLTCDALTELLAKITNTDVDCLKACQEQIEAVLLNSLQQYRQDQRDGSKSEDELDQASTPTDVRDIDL
Variant	normalised enrichment score
GSAKRRLFGERPP [D11R]	0.126
GSQKRRLFGEDPP [A3Q]	0.198
GSAKSRLFGEDPP [R5S]	0.00187
GSMKRRLFGEDPP [A3M]	-0.359
GSAFRRLFGEDPP [K4F]	0.00825
GSAKRRLFGADPP [E10A]	0.0959
GSAKRSLFGEDPP [R6S]	0.156
GSAKRRLEGEDPP [F8E]	-0.283
GLAKRRLFGEDPP [S2L]	-0.0894
GSAKRRNFGEDPP [L7N]	0.762
GSAKRWLFGEDPP [R6W]	-0.0569
GSAKRRIFGEDPP [L7I]	0.775
GSAKRRLFGQDPP [E10Q]	-0.18
ISAKRRLFGEDPP [G1I]	0.736
GSAKRKLFGEDPP [R6K]	0.507
GSAKRRLFGEFPP [D11F]	0.233
GSAKRRLFFEDPP [G9F]	0.705
GEAKRRLFGEDPP [S2E]	0.309
GSAKRRLFGESPP [D11S]	0.422
GSAKRRLFGEDPG [P13G]	-0.21
GSAKRRLFGKDPP [E10K]	0.554
GSIKRRLFGEDPP [A3I]	-0.018
GFAKRRLFGEDPP [S2F]	-0.209
GSATRRLFGEDPP [K4T]	0.428
GSAKRRLFGEDCP [P12C]	0.319

Repeated from above (block 4):
Variant	normalised enrichment score
GSAKRRLFGEDCP [P12C]	0.319
GSAKRRLFGQDPP [E10Q]	-0.18
GSIKRRLFGEDPP [A3I]	-0.018
GSAKRRLFGERPP [D11R]	0.126
